Measured values collected from several papers.
Every numbered part comes from another study and shows a few of its results, in no order. Positions count from the first letter of the parent shown.
Sequence of UniProt Q8TD08 (whole entry, looked up): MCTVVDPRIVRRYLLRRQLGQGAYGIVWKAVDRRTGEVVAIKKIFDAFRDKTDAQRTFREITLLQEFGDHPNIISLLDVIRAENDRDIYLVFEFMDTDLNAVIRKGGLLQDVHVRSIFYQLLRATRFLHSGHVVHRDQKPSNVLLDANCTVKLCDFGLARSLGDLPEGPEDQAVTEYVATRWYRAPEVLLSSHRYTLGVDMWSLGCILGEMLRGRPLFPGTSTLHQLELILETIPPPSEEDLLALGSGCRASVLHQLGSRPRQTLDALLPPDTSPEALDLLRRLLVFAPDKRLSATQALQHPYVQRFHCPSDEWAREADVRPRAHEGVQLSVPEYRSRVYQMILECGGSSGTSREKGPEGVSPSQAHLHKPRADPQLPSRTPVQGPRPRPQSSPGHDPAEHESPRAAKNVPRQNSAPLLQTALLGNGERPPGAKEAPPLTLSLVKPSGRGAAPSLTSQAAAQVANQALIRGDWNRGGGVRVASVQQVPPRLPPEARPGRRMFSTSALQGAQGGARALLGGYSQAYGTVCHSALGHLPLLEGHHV
Sequence of UniProt Q14164 (whole entry, looked up): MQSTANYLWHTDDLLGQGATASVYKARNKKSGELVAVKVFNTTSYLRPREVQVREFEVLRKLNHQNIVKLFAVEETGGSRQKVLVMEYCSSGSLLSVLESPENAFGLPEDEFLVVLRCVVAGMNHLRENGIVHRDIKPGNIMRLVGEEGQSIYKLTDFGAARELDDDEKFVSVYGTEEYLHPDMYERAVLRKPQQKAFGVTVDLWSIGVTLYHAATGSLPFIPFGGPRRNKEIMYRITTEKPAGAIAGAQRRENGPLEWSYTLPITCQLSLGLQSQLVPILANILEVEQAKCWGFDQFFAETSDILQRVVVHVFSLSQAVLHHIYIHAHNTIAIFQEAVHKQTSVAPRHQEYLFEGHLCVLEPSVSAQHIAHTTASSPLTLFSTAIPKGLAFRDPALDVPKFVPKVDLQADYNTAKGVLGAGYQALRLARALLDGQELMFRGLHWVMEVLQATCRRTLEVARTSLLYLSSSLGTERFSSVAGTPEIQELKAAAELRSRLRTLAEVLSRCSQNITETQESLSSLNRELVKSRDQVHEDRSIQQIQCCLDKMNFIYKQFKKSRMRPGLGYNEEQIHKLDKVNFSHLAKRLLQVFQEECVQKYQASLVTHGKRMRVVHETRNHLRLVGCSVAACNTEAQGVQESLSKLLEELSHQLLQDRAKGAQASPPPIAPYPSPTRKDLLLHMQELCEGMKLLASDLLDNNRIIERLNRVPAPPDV
Sequence of UniProt P42679 (whole entry, looked up): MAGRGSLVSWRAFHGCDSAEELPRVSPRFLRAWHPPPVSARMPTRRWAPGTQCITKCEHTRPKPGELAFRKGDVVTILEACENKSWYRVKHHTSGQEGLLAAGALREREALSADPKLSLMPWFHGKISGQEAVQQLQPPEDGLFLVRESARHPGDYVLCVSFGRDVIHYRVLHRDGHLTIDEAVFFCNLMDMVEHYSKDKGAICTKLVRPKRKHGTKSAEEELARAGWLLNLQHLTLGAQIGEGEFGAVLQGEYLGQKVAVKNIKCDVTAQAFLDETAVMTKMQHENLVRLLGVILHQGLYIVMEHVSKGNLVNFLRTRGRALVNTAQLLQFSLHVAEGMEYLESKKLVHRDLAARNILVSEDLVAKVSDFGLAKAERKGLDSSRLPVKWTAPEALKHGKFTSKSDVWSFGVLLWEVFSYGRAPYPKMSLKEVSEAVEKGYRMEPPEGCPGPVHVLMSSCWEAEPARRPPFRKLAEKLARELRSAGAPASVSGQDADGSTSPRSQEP
Sequence of UniProt P54756 (whole entry, looked up): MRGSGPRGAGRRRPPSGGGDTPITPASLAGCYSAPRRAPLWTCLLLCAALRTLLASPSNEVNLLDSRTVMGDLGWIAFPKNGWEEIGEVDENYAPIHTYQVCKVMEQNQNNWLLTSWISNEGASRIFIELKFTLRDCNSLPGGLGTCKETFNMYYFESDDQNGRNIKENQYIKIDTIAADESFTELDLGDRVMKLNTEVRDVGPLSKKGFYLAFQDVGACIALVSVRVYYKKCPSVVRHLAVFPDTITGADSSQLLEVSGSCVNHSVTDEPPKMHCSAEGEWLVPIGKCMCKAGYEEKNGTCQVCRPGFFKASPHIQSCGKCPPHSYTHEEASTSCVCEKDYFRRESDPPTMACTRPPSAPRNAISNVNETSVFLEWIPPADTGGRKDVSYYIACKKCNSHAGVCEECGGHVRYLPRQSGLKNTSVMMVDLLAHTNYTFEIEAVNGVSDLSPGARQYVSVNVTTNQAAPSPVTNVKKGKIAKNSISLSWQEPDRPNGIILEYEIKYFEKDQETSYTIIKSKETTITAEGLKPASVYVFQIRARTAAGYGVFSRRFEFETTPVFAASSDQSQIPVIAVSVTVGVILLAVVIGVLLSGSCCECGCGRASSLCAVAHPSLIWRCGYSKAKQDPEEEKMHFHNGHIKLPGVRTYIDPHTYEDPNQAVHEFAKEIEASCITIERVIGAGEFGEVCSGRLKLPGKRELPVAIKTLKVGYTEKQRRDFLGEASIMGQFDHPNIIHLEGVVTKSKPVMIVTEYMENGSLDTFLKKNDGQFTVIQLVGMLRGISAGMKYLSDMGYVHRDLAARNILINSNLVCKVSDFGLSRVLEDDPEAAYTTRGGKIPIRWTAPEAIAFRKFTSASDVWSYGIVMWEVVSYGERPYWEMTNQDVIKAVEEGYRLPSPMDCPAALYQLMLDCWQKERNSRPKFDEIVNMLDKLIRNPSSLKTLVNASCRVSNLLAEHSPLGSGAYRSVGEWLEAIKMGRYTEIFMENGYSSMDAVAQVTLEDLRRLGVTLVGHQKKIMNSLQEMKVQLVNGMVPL
Sequence of UniProt O43283 (whole entry, looked up): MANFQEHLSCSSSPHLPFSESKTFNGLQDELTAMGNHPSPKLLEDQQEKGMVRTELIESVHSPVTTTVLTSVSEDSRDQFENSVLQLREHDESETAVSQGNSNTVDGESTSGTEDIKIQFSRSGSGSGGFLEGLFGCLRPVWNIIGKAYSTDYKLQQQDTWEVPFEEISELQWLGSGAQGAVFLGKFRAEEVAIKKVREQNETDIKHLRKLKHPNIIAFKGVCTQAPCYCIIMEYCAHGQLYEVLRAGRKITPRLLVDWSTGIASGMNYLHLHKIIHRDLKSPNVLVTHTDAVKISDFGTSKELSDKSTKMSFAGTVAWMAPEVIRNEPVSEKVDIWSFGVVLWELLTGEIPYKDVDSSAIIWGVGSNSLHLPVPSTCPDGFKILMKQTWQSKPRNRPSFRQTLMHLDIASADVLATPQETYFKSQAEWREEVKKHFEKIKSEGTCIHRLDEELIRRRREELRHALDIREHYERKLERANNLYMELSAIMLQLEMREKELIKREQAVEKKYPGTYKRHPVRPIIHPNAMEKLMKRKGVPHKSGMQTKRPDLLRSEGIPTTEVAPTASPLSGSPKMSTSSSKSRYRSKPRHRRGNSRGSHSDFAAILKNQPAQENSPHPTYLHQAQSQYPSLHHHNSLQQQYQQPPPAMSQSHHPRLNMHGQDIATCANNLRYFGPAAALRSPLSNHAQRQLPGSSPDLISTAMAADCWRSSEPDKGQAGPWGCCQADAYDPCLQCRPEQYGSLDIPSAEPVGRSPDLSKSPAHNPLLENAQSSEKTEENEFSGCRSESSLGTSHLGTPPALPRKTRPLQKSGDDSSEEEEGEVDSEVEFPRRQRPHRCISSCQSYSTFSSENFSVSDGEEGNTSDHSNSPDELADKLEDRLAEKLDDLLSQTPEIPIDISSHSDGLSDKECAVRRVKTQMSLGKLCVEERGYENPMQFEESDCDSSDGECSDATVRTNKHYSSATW
Sequence of UniProt Q8IVW4 (whole entry, looked up): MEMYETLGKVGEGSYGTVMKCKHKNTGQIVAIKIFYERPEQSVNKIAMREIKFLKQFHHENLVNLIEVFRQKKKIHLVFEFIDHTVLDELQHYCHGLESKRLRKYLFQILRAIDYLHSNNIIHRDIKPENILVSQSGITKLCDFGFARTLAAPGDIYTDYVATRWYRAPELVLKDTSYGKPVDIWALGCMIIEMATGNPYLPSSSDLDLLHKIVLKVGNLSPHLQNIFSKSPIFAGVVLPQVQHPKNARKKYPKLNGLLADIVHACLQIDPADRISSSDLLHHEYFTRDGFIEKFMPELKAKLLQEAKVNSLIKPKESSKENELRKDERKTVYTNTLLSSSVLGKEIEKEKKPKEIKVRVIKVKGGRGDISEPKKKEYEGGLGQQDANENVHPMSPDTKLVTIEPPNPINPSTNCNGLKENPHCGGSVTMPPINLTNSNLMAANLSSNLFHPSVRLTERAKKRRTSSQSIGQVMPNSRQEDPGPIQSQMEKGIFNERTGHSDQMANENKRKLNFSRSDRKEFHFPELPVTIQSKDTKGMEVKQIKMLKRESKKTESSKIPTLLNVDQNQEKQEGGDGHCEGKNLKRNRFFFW

Sample 1
Structure (SMILES): O=C(NCc1ncc(C(F)(F)F)cc1Cl)c1ccc2c(c1)C1(CCS(=O)(=O)CC1)[C@@H](C1CC1)N2S(=O)(=O)c1ccc(F)cc1
Observed: cell-free assay
Method: competition with immobilised ligand
Tested at: 1 µM
Measurement: remaining binding
CDKL3 (Homo sapiens, UniProt Q8IVW4): 100%
MAP3K13 (Homo sapiens, UniProt O43283): 0%
IKBKE (Homo sapiens, UniProt Q14164): 82%
MAPK15 (Homo sapiens, UniProt Q8TD08): 100%
BRSK1 (Homo sapiens, UniProt Q8TDC3): 100%
MATK (Homo sapiens, UniProt P42679): 74%
EPHA5 (Homo sapiens, UniProt P54756): 77%
RET (Homo sapiens, UniProt P07949, M918T): 100%

Sample 2
Target: OGT, full length, His-tagged (human)
Method: phage display, sequencing
Medium: in vitro
Tested at: 1 µg OGT
Notes: single substitutions, 15-mer displayed peptide, unchanged parent 16.7
Reference: input library
Direction: higher = stronger binding
Measurement: fold enrichment
Parent: peptide; NSEYMPQYQIIFAHQ
NAEYMPQYQIIFAHQ [S2A]: 18.2 fold
NSEYMPQYQIIFATQ [H14T]: 15.5 fold
NSIYMPQYQIIFAHQ [E3I]: 17.7 fold
NSEYMPVYQIIFAHQ [Q7V]: 4.6 fold
NSEYMPQYQKIFAHQ [I10K]: 0.571 fold
NSEYMPQYQIIRAHQ [F12R]: 0.673 fold
NSEYMPQYQIIFYHQ [A13Y]: 7.32 fold
NSEYMPQYWIIFAHQ [Q9W]: 2.08 fold

Sample 3
Host: human
Medium: microsomes or S9
Tested at: 2 µM
Time: 0.5 h
Measurement: remaining compound
O=C(Nc1ccccc1)C1CCCN1C1=NS(=O)(=O)c2ccccc21 (stereo not drawn): 99.6%
CC(c1ccc(NC(=O)N2CCC=C(F)C2)cc1)N1CCOCC1 (stereo not drawn): > 100%
Cc1ccc(NC(=O)C(C)C(=O)Nc2ccc(C)cc2)cc1: 11.6%

Mixed results
CC(C)n1cnc(-c2ccc(F)cc2)c1-c1ncc(C(=O)Nc2ccc(N3CCN(C)CC3)cc2)[nH]1
patients with TEAE (phase 2a trial; idiopathic pulmonary fibrosis patients; oral, 60 mg once daily, musculoskeletal disorders, grade 4): 0%

CC(C)NCC(O)c1ccc(O)c(O)c1.Cl (stereo not drawn)
log2 fold change (Sarcocystis neurona; parasite growth; concentration not given, first screen; reference: untreated): 0.17

Some of these lines once more (sample 2):
NAEYMPQYQIIFAHQ [S2A]: 18.2 fold
NSEYMPQYQIIFATQ [H14T]: 15.5 fold
NSIYMPQYQIIFAHQ [E3I]: 17.7 fold
